Assay results gathered from unrelated publications.
Every numbered part comes from another study and shows a few of its results, in no order. Values joined by “and” are separate records of one study, mostly repeats; a detail may differ.
Sequence of UniProt P10721 (whole entry, unmodified, looked up): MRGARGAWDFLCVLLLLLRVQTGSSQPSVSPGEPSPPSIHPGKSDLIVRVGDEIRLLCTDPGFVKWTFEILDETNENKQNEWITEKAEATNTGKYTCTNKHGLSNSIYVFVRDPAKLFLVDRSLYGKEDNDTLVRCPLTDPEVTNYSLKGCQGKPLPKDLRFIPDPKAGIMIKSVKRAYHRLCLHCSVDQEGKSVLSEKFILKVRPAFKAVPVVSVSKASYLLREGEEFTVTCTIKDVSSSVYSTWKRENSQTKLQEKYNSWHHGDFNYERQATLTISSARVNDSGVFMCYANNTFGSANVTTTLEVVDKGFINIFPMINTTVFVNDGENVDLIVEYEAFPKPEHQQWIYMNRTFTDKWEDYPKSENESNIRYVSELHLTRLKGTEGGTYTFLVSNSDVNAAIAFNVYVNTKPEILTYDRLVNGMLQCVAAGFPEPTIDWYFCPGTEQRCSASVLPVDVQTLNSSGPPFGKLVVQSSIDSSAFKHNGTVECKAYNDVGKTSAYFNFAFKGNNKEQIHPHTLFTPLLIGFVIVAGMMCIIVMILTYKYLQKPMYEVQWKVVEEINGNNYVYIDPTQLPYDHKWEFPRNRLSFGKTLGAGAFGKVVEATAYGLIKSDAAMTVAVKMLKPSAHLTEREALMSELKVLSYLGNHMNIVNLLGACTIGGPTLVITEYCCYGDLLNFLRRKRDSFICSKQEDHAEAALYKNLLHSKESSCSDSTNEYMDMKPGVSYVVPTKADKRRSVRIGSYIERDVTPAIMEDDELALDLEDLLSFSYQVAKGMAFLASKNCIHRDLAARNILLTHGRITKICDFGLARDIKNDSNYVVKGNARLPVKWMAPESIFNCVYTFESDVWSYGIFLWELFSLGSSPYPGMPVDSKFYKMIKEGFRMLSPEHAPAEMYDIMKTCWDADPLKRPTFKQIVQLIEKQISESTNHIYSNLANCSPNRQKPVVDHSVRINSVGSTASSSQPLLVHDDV
Sequence of UniProt Q15349 (whole entry, looked up): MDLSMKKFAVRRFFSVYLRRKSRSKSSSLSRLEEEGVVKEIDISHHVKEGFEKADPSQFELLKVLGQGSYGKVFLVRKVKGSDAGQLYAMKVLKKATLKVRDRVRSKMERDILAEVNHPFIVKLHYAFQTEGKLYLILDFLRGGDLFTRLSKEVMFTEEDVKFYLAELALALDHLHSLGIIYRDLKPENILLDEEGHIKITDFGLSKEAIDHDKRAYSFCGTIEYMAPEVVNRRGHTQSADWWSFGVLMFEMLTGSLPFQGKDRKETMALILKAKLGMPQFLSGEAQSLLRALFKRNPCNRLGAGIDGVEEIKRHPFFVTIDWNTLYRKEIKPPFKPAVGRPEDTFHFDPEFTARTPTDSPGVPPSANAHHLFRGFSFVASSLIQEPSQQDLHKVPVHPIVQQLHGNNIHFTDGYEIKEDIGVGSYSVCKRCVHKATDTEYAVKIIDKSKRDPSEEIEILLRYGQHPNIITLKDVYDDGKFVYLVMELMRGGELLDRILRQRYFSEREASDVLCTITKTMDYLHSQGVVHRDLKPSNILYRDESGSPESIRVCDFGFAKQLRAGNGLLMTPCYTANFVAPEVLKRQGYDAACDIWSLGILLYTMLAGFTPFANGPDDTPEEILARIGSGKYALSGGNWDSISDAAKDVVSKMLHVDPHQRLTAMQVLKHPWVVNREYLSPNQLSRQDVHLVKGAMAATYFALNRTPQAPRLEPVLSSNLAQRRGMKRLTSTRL
Sequence of UniProt P54762 (whole entry, looked up): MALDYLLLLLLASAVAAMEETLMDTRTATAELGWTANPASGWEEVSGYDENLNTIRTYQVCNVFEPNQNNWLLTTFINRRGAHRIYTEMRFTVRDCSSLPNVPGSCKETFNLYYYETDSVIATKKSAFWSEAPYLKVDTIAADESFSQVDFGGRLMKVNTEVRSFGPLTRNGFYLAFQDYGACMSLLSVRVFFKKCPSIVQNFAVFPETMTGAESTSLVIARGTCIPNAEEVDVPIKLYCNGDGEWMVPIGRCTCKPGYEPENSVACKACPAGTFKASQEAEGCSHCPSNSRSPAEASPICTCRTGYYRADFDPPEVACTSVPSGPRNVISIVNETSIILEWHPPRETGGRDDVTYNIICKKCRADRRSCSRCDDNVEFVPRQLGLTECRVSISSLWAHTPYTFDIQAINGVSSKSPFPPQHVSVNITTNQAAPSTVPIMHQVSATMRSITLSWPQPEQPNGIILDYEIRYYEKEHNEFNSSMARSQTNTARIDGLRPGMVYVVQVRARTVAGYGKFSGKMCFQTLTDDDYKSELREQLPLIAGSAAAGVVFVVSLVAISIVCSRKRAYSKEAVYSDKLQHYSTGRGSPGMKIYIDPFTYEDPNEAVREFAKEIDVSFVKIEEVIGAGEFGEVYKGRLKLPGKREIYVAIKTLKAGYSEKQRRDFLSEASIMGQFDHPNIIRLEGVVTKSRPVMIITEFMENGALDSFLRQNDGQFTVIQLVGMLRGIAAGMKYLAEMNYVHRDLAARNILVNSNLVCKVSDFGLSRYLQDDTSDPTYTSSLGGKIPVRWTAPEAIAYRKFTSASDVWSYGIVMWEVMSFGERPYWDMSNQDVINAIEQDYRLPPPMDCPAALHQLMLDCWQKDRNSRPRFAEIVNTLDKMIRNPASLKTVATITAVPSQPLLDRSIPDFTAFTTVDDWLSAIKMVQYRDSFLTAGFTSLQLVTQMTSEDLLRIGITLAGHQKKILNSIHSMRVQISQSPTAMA
Sequence of UniProt Q13976 (whole entry, looked up): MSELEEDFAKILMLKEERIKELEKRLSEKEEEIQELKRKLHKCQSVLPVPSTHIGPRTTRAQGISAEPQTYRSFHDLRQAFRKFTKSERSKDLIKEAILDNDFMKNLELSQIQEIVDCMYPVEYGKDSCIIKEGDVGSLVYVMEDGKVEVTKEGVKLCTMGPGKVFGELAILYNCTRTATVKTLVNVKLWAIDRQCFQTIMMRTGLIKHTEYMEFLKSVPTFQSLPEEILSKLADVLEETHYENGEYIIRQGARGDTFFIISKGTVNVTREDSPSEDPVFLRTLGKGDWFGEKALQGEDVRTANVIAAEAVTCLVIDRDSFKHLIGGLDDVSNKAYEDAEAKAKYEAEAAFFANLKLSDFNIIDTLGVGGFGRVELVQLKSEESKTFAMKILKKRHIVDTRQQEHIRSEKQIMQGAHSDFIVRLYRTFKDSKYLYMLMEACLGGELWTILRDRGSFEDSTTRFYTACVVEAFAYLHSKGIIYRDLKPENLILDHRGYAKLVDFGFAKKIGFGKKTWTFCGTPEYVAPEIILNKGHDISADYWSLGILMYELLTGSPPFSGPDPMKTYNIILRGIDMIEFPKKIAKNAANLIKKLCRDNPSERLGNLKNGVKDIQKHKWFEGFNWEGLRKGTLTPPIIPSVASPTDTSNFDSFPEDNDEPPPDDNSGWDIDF
Sequence of UniProt P48729 (whole entry, looked up): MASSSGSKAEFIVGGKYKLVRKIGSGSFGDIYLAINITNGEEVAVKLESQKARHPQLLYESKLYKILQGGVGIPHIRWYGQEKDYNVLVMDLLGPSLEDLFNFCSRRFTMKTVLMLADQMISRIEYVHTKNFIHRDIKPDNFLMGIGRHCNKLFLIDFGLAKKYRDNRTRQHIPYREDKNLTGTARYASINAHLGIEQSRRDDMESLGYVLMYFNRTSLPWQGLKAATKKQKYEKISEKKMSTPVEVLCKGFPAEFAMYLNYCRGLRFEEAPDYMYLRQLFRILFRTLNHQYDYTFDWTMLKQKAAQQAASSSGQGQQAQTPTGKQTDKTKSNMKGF

Block 1 — observed: enzyme activity; mode: inhibitor; concentration: 0.5 µM; reference: control
Target: Serine/threonine-protein kinase N1 (PKN1, Homo sapiens, UniProt Q16512)
Sequence of UniProt Q16512 (whole entry, looked up): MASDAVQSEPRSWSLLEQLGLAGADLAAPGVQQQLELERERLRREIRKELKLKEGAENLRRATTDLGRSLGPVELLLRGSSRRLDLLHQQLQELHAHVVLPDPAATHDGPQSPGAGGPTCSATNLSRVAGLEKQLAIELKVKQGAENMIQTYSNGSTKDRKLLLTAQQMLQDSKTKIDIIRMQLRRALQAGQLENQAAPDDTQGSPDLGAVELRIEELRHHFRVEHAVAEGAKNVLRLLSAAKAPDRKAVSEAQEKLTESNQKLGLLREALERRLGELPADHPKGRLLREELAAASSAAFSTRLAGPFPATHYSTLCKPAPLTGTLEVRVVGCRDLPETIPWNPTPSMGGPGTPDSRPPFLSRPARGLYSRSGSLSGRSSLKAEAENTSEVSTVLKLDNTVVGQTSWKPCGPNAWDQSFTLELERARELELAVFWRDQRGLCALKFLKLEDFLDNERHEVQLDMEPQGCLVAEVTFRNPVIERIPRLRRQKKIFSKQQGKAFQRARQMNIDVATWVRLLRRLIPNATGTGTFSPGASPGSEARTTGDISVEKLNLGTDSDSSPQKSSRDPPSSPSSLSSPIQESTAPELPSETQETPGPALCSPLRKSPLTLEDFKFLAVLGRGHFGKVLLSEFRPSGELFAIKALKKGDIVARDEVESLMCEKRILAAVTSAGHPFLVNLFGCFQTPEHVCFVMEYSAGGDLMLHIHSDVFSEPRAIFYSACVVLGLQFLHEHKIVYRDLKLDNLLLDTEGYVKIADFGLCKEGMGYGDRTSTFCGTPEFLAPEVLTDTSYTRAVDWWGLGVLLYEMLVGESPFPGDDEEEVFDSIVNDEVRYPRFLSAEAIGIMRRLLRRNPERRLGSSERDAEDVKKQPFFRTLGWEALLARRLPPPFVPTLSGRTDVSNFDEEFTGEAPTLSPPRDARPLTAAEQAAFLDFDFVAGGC
With `CC(C)(C)n1nc(Cc2cccc3ccccc23)c2c(N)ncnc21` the remaining activity was 99.6%.
The remaining activity of `NC(=O)c1ccc(N(C(N)=O)c2c(F)cccc2F)nc1-c1ccc(F)cc1F` is reported as 101%.
The remaining activity of `CC(=O)c1ccc(N2CCOCC2)cc1O` is reported as 108%.
For `Oc1ccc(Nc2nc(-c3ccc(Cl)cc3)cs2)cc1`, the remaining activity was 99.5%.
The remaining activity of `CSc1nc(-c2ccnc(N[C@@H](C)c3ccccc3)c2)c(-c2ccc(F)cc2)[nH]1` (racemic) is reported as 105%.
With `Fc1ccc(-c2nc3n(c2-c2ccncc2)CCS3)cc1` the remaining activity was 101%.
For `O=C1NC(=O)C(c2c[nH]c3ccccc23)=C1c1c[nH]c2ccccc12`, the remaining activity was 84.6%.
For `Cc1cc(Nc2nc(-c3ccccc3)nc3ccccc23)n[nH]1`, the remaining activity was 89.9%.
`CCCC(=O)Oc1ccc2[nH]c(C(=O)c3cc4ccccc4[nH]3)cc2c1` gave a remaining activity of 94.6%.
`COc1cc(Nc2c(C#N)cnc3cc(OCCCN4CCN(C)CC4)c(OC)cc23)c(Cl)cc1Cl` has a remaining activity of 74.2%.
The remaining activity of `Nc1nccc(-c2c(-c3ccc(F)cc3)ncn2C2CCNCC2)n1` is reported as 96.3%.
`Cc1cncc2cccc(S(=O)(=O)N3CCCN(C(=O)CN)C[C@@H]3C)c12` gave a remaining activity of 25.3%.
`CC[n+]1c(/C=C/N(C)c2ccccc2)n(-c2ccccc2)c2ccc(-c3nc4ccccc4s3)cc21` has a remaining activity of 85.7%.
`N#CC(=C(N)Sc1ccc(N)cc1)c1ccccc1C(F)(F)F` has a remaining activity of 104%.
`CCc1[nH]c(-c2ccc(OC)cc2)nc1-c1ccncc1` has a remaining activity of 97%.
With `COc1ccc(S(=O)(=O)N(CCO)c2ccccc2CN(C)CC=Cc2ccc(Cl)cc2)cc1` the remaining activity was 110%.
The remaining activity of `CC#CC(=O)Nc1cc2c(Nc3ccc(F)c(Cl)c3)ncnc2cn1` is reported as 101%.
For `Nc1ncnc2c1cnn2-c1ccccc1`, the remaining activity was 98.6%.
For `Cc1ccc(NC2=CC(=O)c3sc(C)nc3C2=O)cc1`, the remaining activity was 98.9%.
With `Nc1nc(Nc2ccc(S(N)(=O)=O)cc2)nn1C(=O)c1c(F)cccc1F` the remaining activity was 89.7%.
`O=C1Cc2c([nH]c3ccc([N+](=O)[O-])cc23)-c2ccccc2N1` has a remaining activity of 88.2%.
For `O=S(=O)(NCCNC/C=C/c1ccc(Br)cc1)c1cccc2cnccc12`, the remaining activity was 14.3%.

Block 2 — SMILES: CSc1cccnc1N1CCN(Cc2nc3ccccc3[nH]2)CC1; observed: cell-free assay; technique: competition with immobilised ligand; concentration: 1 µM
EPHB1 (Homo sapiens, UniProt P54762) — remaining binding: 99%.
The remaining binding was 71% (Tyrosine-protein kinase ABL1, phosphorylated (ABL1, Homo sapiens, UniProt P00519, Q252H)).
CSNK1A1 (Homo sapiens, UniProt P48729) — remaining binding: 72%.
The remaining binding was 100% (EGFR (Homo sapiens, UniProt P00533, L861Q)).
The remaining binding was 62% (HIPK2 (Homo sapiens, UniProt Q9H2X6)).
The remaining binding was 100% (CIT (Homo sapiens, UniProt O14578)).
It gave 94% for remaining binding (PIK3C2B (Homo sapiens, UniProt O00750)).
It gave 93% for remaining binding (ROCK1 (Homo sapiens, UniProt Q13464)).
PRKG1 (Homo sapiens, UniProt Q13976) — remaining binding: 100%.
For FGFR2 (Homo sapiens, UniProt P21802): remaining binding read 100%.
The remaining binding was 87% (STK3 (Homo sapiens, UniProt Q13188)).
It gave 80% for remaining binding (CLK1 (Homo sapiens, UniProt P49759)).
The remaining binding was 100% (Ribosomal protein S6 kinase alpha-2, C-terminal kinase domain (RPS6KA2, Homo sapiens, UniProt Q15349)).
AAK1 (Homo sapiens, UniProt Q2M2I8) — remaining binding: 100%.
For LATS2 (Homo sapiens, UniProt Q9NRM7): remaining binding read 94%.
For KIT (Homo sapiens, UniProt P10721): remaining binding read 100%.
It gave 100% for remaining binding (MAP4K5 (Homo sapiens, UniProt Q9Y4K4)).
For STK38 (Homo sapiens, UniProt Q15208): remaining binding read 88%.
For BMX (Homo sapiens, UniProt P51813): remaining binding read 100%.
MET (Homo sapiens, UniProt P08581) — remaining binding: 100%.
The remaining binding was 100% (BRSK1 (Homo sapiens, UniProt Q8TDC3)).
For DDR1 (Homo sapiens, UniProt Q08345): remaining binding read 100%.
Ribosomal protein S6 kinase alpha-4, C-terminal kinase domain (RPS6KA4, Homo sapiens, UniProt O75676) — remaining binding: 73%.
For KIT (Homo sapiens, UniProt P10721, L576P): remaining binding read 92%.
HIPK1 (Homo sapiens, UniProt Q86Z02) — remaining binding: 78%.

Block 3 — cell line: mouse MPNST tumor cells; technique: high-content immunofluorescence imaging; item: nuclear SOX9; concentration: 10 µM; time: 12 h; setting: mean of 2 replicates; reference: DMSO control; reading: higher = more nuclear SOX9
For `CNC(=O)c1cccc(NC(=O)N2CCC(Oc3ccccc3Cl)CC2)c1`, “nuclear SOX9 intensity” read 107 % of DMSO.
Under “nuclear SOX9 intensity”, `CC(Oc1ccccc1)C(=O)N[C@@H]1C(=O)N2[C@@H]1SC(C)(C)[C@@H]2C(=O)O` (some centres unmarked) is recorded as 95.7 % of DMSO.
For `C#C[C@]1(O)CC[C@H]2[C@@H]3CCC4=C(CCC(=O)C4)[C@H]3CC[C@@]21C`, “nuclear SOX9 intensity” read 103 % of DMSO.
`CC1=C(/C=C/C(C)=C/C=C/C(C)=C/C(=O)O)C(C)(C)CCC1` — result for “nuclear SOX9 intensity”: 106 % of DMSO.
For `O=C(O)CCCCN(CCc1ccccc1OCc1ccc(CCc2ccccc2)cc1)Cc1ccc(C(=O)O)cc1`, “nuclear SOX9 intensity” read 99.3 % of DMSO.
For `CON(C)C(=O)[C@H](O)[C@H](Cc1ccccc1)NC(=O)c1cc2cc(Cl)ccc2[nH]1`, “nuclear SOX9 intensity” read 109 % of DMSO.
Under “nuclear SOX9 intensity”, `COc1ccccc1Nc1nc(-c2sc(NC(C)=O)nc2C)cs1` is recorded as 113 % of DMSO.
`Cc1onc(-c2ccccc2)c1C(=O)N[C@@H]1C(=O)N2[C@@H]1SC(C)(C)[C@@H]2C(=O)O`: “nuclear SOX9 intensity” 97.6 % of DMSO.
`COc1ccc2cccc(N3CCN(CCNC(=O)c4ccc(F)cc4)CC3)c2c1`: “nuclear SOX9 intensity” 207 % of DMSO.
`Cc1ccc2c(=O)c3ccccc3n(CCCN)c2c1C` — result for “nuclear SOX9 intensity”: 308 % of DMSO.
`C[C@]12CCC(=O)C=C1C=C[C@@H]1[C@@H]2CC[C@@]2(C)[C@H]1CC[C@@]21CCC(=O)O1`: “nuclear SOX9 intensity” 95.4 % of DMSO and 106 % of DMSO.
Under “nuclear SOX9 intensity”, `CC(N)C12CC3CC(CC(C3)C1)C2` (centres unmarked) is recorded as 106 % of DMSO.
Under “nuclear SOX9 intensity”, `O=C(C=Cc1ccccc1)NC(NC(=S)Nc1ccc(Cl)cc1)C(Cl)(Cl)Cl` (centres unmarked) is recorded as 112 % of DMSO.
`Cc1ccc(N2CCN(CCC3NC(=O)c4ccccc43)CC2)cc1C` (centres unmarked): “nuclear SOX9 intensity” 113 % of DMSO.
`CC1(C)O[C@@H]2C[C@H]3[C@@H]4C[C@H](F)C5=CC(=O)C=C[C@]5(C)[C@@]4(F)[C@@H](O)C[C@]3(C)[C@]2(C(=O)CO)O1`: “nuclear SOX9 intensity” 68.9 % of DMSO.
`Cn1cc(-c2[nH]c3cc(NC(=O)[C@H](N)C4CCCCC4)cc4c3c2C=NNC4=O)cn1` — result for “nuclear SOX9 intensity”: 141 % of DMSO.

Block 4 — observed: RNA clamping; technique: fluorescence polarization; concentration: concentration not given; setting: mean of two replicates; added: FAM-labelled poly r(AG)8 RNA
Target: Eukaryotic initiation factor 4A-I (EIF4A1, Homo sapiens, UniProt P60842)
Sequence of UniProt P60842 (whole entry, looked up): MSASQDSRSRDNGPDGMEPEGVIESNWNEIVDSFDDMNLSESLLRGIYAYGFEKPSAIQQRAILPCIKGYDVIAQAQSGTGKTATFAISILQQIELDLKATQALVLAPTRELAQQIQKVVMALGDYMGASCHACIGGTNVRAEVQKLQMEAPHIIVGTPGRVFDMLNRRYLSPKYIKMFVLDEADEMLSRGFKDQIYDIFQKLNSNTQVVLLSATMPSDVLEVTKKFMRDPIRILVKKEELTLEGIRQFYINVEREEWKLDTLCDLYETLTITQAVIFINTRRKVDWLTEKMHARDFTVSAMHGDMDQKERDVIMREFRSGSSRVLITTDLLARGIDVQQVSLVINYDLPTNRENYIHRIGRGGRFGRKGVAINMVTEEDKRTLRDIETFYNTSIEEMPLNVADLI
`COc1ccc([C@@]23Oc4cc(OC)cc(OC)c4[C@]2(O)[C@H](O)[C@H](C(=O)c2nccn2C)[C@H]3c2ccccc2)cc1`: “fluorescence polarization change” 31.6 mP.
Under “fluorescence polarization change”, `COC(=O)[C@H]1[C@@H](O)[C@@]2(O)c3c(OC)cc(OS(=O)(=O)c4ccc(C)cc4)cc3O[C@@]2(c2ccc(OC)cc2)[C@@H]1c1ccccc1` is recorded as 16.1 mP.
`COC(=O)[C@H]1[C@@H](O)[C@@]2(O)c3c(OC)cc(OC)cc3N(C)[C@@]2(c2ccc(Br)cc2)[C@@H]1c1ccccc1` — result for “fluorescence polarization change”: 18 mP.
For `C#CCCC(=O)O[C@@H]1[C@H](C(=O)c2ccco2)[C@@H](c2ccccc2)[C@]2(c3ccc(OC)cc3)Oc3cc(OC)cc(OC)c3[C@]12O`, “fluorescence polarization change” read 9.7 mP.
`COC(=O)C1=C(c2ccccc2)[C@]2(c3ccc(OC)cc3)Oc3cc(OC)cc(OC)c3[C@]2(O)C1=O` — result for “fluorescence polarization change”: 19 mP.
`COC(=O)[C@@H]1[C@@H](c2ccccc2)[C@]2(c3ccc(OC)cc3)Oc3cc(OC)cc(OC)c3[C@@]23NC(c2cccnc2)=N[C@@]13O`: “fluorescence polarization change” 34.6 mP.
`COC(=O)[C@@H]1[C@@H](c2ccccc2)[C@]2(c3ccc(OC)cc3)Oc3cc(OC)cc(OC)c3[C@@]23OC(c2cccnc2)=N[C@@]13O` — result for “fluorescence polarization change”: 5.3 mP.
`COc1ccc([C@@]23Oc4cc(OC)cc(OC)c4[C@]2(O)c2nc(-c4ccccn4)[nH]c(=O)c2[C@H]3c2ccccc2)cc1`: “fluorescence polarization change” 8.4 mP.
`COc1ccc([C@]23Oc4cc(OC)cc(OC)c4[C@](O)([C@H](C(=O)NCCCC(OC)OC)[C@H]2c2ccccc2)[C@H]3O)cc1`: “fluorescence polarization change” 1.4 mP.
Under “fluorescence polarization change”, `COc1ccc([C@@]23Oc4cc(OC)cc(OC)c4[C@]2(O)c2nc(-c4ccccc4)n(CC(CC(=O)O)OC)c(=O)c2[C@H]3c2ccccc2)cc1` (some centres unmarked) is recorded as 8.8 mP.
Under “fluorescence polarization change”, `CO/N=C(\c1ccco1)[C@H]1[C@@H](O)[C@@]2(O)c3c(OC)cc(OC)cc3O[C@@]2(c2ccc(OC)cc2)[C@@H]1c1ccccc1` is recorded as 10.3 mP.
Under “fluorescence polarization change”, `COc1ccc([C@@]23Oc4cc(OC)cc(OC)c4[C@]2(O)[C@@H]2OC(=O)[C@@H]2[C@H]3c2ccccc2)cc1` is recorded as 49.6 mP.
For `COC(=O)[C@H]1C(=O)[C@@]2(NC(C)C)c3c(OC)cc(OC)cc3O[C@@]2(c2ccc(OC)cc2)[C@@H]1c1ccccc1`, “fluorescence polarization change” read 6.3 mP.
Under “fluorescence polarization change”, `COc1ccc([C@@]23Oc4cc(OC)cc(OC)c4[C@]2(O)c2nc(-c4ccccc4)[nH]c(=O)c2/C3=C\Cc2ccccc2)cc1` is recorded as -3.8 mP.

Repeated from above (block 2):
It gave 80% for remaining binding (CLK1 (Homo sapiens, UniProt P49759)).
CSNK1A1 (Homo sapiens, UniProt P48729) — remaining binding: 72%.
For BMX (Homo sapiens, UniProt P51813): remaining binding read 100%.
The remaining binding was 62% (HIPK2 (Homo sapiens, UniProt Q9H2X6)).
The remaining binding was 100% (CIT (Homo sapiens, UniProt O14578)).
PRKG1 (Homo sapiens, UniProt Q13976) — remaining binding: 100%.
